# Measured values of several laboratories.
# Protocols differ between the studies behind these lines.
# Target: Kappa-type opioid receptor (OPRK1, Homo sapiens, UniProt P41145)
# Sequence of UniProt P41145 (whole entry, looked up): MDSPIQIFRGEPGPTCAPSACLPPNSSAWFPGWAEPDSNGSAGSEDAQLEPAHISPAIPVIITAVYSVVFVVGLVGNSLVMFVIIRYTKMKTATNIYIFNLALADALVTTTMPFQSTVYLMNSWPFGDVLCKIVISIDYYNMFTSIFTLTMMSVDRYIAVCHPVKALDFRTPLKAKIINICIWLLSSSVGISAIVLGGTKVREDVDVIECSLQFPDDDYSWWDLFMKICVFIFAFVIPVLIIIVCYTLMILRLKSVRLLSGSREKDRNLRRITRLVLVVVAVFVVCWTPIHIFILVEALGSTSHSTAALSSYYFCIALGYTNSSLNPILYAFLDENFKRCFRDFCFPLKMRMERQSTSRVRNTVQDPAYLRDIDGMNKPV
test,test system,setting,scale,endpoint,result,Compound
"ligand displacement, radioligand",,10 µM,,inhibition,-10%,CC(C)Cn1c(SCC(=O)N2CCc3ccccc3C2)nc2cc(Cl)ccc2c1=O
"ligand displacement, radioligand",,250 µM,,inhibition,5%,C[Si](C)(C)C[C@H](CN)CC(=O)O
"agonist, cell-based",,10 µM,,activation,-6.55%,COc1ncc2nc(C)n(Cc3ncc(S(N)(=O)=O)cc3F)c2c1-c1ccccc1
"ligand displacement, radioligand",,10 µM,,inhibition,< 50%,COc1ccc(C(=O)Nc2c(-c3cccs3)nc3ccccn23)cc1
"ligand displacement, radioligand",,70 µM,,inhibition,-11%,C[Si]1(C[C@H](CN)CC(=O)O)CCCC1
"ligand displacement, radioligand",,10 µM,,inhibition,10%,Cn1ccc2cc(-n3c(=O)[nH]c4sc5c(c4c3=O)CCCC5)ccc21
Gi signalling,,,,log(tau/KA),7.4,NC(=O)c1cccc(CN(C(=O)NC(CN2CCCCC2)c2ccccc2)C(CN2CCCCC2)c2ccccc2)c1 (stereo not shown)
"ligand displacement, radioligand",,1 µM,,inhibition,6%,O=C1c2sc(-c3ccc(N4CCC(F)C4)nc3F)nc2CCN1c1cccnc1 (stereo not shown)
beta-arrestin recruitment,,,baseline: reference agonist,delta log(tau/KA),-2.32,NC(=O)c1cccc(CN(Cc2ccc(Cl)c(Cl)c2)C(=O)NC(CN2CCCCC2)c2ccccc2)c1 (stereo not shown)
"cAMP level, agonist, LANCE Ultra cAMP",CHO,50 µM,,activation,5.65%,"CC(=O)C12NC(C)(C)CC1(C)C(=O)C1=C2c2c(c3c4n2C(C)(C)CC2=C4C4(CC(C)(C)NC(C)(C4)C2=O)CC3(C)C)C(=O)C(C)(C)N1 (single isomer, unassigned; (-))"

# Excerpt of the above:
test,test system,setting,scale,endpoint,result,Compound
"ligand displacement, radioligand",,250 µM,,inhibition,5%,C[Si](C)(C)C[C@H](CN)CC(=O)O
